Experimental data pooled from the literature.
Lines come from different studies, so protocols differ.
Cell line: BV-2

| Structure (SMILES) | assay | conditions | endpoint | value |
| --- | --- | --- | --- | --- |
| C#CCOc1ccc(/C=C/C(=O)N2CCc3ccccc3C2)cc1OC | NO release, inhibitor, Griess | 5 µM, LPS-stimulated | inhibition | 35.1% |
| COc1cc(/C=C/C(=O)NCCc2ccc(O)cc2)ccc1O | NO release, inhibitor, Griess | LPS-stimulated | IC50 | > 20 µM |
| COc1cc(O)c2c(=O)c(O)c(-c3ccc(O)c(O)c3)oc2c1 | TNF-alpha release, inhibitor, ELISA | 24 h, added: 10 µg/mL LPS + 10 µM MLA | Hill slope | -1 |
| COc1cc(/C=C/C(=O)N2CCc3ccccc3C2)ccc1OC1CCCCC1 | NO release, inhibitor, Griess | 10 µM, LPS-stimulated | inhibition | 64.1% |
| COc1cc(/C=C/C(=O)c2ccccc2O)cc(OC)c1OC | nitric oxide production, Griess, refers to: nitrite | 24 h, added: LPS 1 µg/mL | IC50 | 2.26 µM |
| COc1cc(/C=C/C(=O)N2CCC(Cc3ccccc3)CC2)ccc1OC1CCCCC1 | NO release, inhibitor, Griess | 10 µM, LPS-stimulated | inhibition | 59.5% |
| COc1cc2ccc3cccc(O)c3c2c(OC)c1O | NO release, inhibitor, Griess | LPS-stimulated | IC50 | > 20 µM |
| C[C@@H]1C[C@H]2[C@@H]3CCC4=CC(=O)C=C[C@]4(C)[C@@]3(F)[C@@H](O)C[C@]2(C)[C@@]1(O)C(=O)CO | NO release, inhibitor, Griess | 24 h, LPS-stimulated | IC50 | < 0.2 µM |
| O=C(O)c1ccc(O)cc1 | NO release, inhibitor, Griess | LPS-stimulated | IC50 | > 20 µM |
| COc1ccc(/C=C/C(=O)N2CCc3ccccc3C2)cc1OC | NO release, inhibitor, Griess | 10 µM, LPS-stimulated | inhibition | 62.5% |
| COC1=CC(=O)c2ccc3cc(OC)c(OC)c(OC)c3c2C1=O | NO release, inhibitor, Griess | LPS-stimulated | IC50 | 8.77 µM |
| COc1cc(O)c2c(c1)O[C@H](c1ccc(O)cc1)CC2=O | TNF-α release, inhibitor, ELISA | LPS-stimulated | IC50 | 158 µM |

Some of these lines once more:
| Structure (SMILES) | assay | conditions | endpoint | value |
| --- | --- | --- | --- | --- |
| C#CCOc1ccc(/C=C/C(=O)N2CCc3ccccc3C2)cc1OC | NO release, inhibitor, Griess | 5 µM, LPS-stimulated | inhibition | 35.1% |
| COc1cc(/C=C/C(=O)NCCc2ccc(O)cc2)ccc1O | NO release, inhibitor, Griess | LPS-stimulated | IC50 | > 20 µM |
